Experimental data pooled from the literature.
Each numbered part is a random draw from the data of one study; scales do not carry over between parts. Positions count from the first letter of the parent shown.

Set 1 — technique: EMSA with sequencing; molecule type: double-stranded DNA, one strand shown; medium: in vitro; tested at: 10 and 20 nM; reference: negative control set to 0; reading: higher = stronger binding; measurement: normalised bound fraction
Target: Hepatocyte nuclear factor 3-alpha (Foxa1, Mus musculus, UniProt P35582, residues 1-468, full length assumed)
Setting: whole designed probe, mean of two concentrations, ends assumed
All sequences stand within: GTGAGCGGTGCCCATTGATGGGGAAC … TTTCACTGGGATCGTGGGGAC
Residues (chain): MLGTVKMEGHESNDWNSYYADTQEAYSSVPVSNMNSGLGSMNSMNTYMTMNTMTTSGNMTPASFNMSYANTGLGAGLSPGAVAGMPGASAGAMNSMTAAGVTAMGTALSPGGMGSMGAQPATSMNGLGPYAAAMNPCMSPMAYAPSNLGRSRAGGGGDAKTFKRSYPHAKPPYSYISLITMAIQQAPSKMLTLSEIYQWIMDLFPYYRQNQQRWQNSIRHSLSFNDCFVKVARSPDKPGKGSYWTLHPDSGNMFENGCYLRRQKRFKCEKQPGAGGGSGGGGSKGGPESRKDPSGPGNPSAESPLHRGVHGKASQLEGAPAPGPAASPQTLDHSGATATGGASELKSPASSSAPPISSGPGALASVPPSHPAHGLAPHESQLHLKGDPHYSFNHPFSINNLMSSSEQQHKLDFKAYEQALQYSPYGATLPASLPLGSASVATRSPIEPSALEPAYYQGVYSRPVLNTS
GGGTCCCGGGCGGCGGCAGGAATGCAGGAATGCGCACAGGCTGTGGGCGGCCAGGAGGGAGTCCCGGCGCCTGCCCCGGCGGAAGTGAGTCTTTGTGTACCCTGTCCAACACCTCCCCCCGCCAGCGCGGAAGGCCGGGCTACCTGCGCGCCTGGCAGCGCCTGGCAGCCGGCTGGGTGGGGCGCAGGGGAGC: 0.00165 ratio
CAAGTTTGTGGTCCAGGAGCAACAGGTTATGCCATACAGCCTAGGTGTGTAGTAGGCTACACCCATGACTCATTTGTGTTGTACACTCTACAATGTTTGCACAATGATGAAATCCCATGTCACATTTCTCAGAACATACCCCTGTTGTTAAGCGATACATGACTGTACTTTTTTTAAAAAGTCCAAGGATATA: 0.429 ratio
TCCAAGCGCTCCGAATGTCCACTTGCAGATGCTACAAAAAGAGTGTTTCAAAACTGCTCTATGAAAAGGAATGTGCAAATCTGTGAGATAAATGCAAACATCACAAAGAAGTCTTTGAGAATGCTTCTGTCTAGTTTGTATGTTAAGATATTTCCCATTTCACCATACGTCTTAACGCACACCAAATGTCCAC: 0.182 ratio
CGAGAAGCTCCTTGAAATACAAAGGGAAACAAGGCAGTGCCTCTCTCCTTAGTGGGCAAGGCAGGGAGGGGGCAGCAATGGTAGCAGCTCACCATGTTTACTTTGTTTTTTAATTTCAAATTCACACACAATGAGGTATCTGCGTTCCATTACAATATGACTGCCAGGGCAAGCCTAGTTTATTACTTTCTTA: 0.383 ratio
TCTTTAATTTGGATGACTCTCCTTAGAGCAGCCAAATCAGCTTCTTGCTGATAACAGTAATCAGGTTTTATACTAAAGTCCCCAGTTAGGCAGAGTAATCTGGAAGCAGCCTGTTATTGATCTGTGTTATGGAAGGTTCTTTTCCACTGAGGAGACTGAATATTTTATACTGAAACCTTTTACTTCCTGTACC: -0.0497 ratio
CTGTGCAGAAAAGAGATAGCACAGTAAGACTGAGACTCTTGATACCCACAGAAAGGCTGACCTTTGCCTACAGTCTGCAAACGTCACTGGTAAGTAAACAGCTCCCTACATTGATACAAAACTCTCTAAGTGAAAACAGTGGCTCACTGTGCCTAACGGGTTTATGCTAAAGACCTGTTTTCCTTTCAGGAGT: 0.2 ratio
AAAAGATTTGGTATCGTTTAAAAAAAAAAAAAAGCTGGGTGGGGCCGAGGAGAATCCACCCAAACTTTCCTCAGGAAGTAGGAAGATTACTGAGTAATTTTGCGGTAGTCACAGAAACACCTGCTACTCCTTTAAGACCTCAGGAGCCACCACCGCCACCTCCTGGCCACATCCGGGCACTTCTCTGCAAACT: -0.0349 ratio
TTTTTTAGTCTCACTAACTCCAAATCCCCCAAAACAGAAAATGATTCTGTAATTATAAGAGATATAATTTTTCTTCCCTTAGAAGAAGCAAGGTAATCTAGGAATATTGCTTTCTAAGAAATAAAGTATTTTCTTATGCTGGACAAATCATGTTTCCTTAACATAAAGAACTTTATAGTTACATGTAAATTAG: -0.0415 ratio

Set 2 — target: CCNE2, cyclin fold, Cln2 fusion (human); technique: yeast growth competition, sequencing; medium: yeast; setting: strong parent motif; reference: not given; reading: higher = stronger binding; measurement: normalised enrichment score
Starting sequence: viral docking peptide; KGVKRKLFAEDSS; partner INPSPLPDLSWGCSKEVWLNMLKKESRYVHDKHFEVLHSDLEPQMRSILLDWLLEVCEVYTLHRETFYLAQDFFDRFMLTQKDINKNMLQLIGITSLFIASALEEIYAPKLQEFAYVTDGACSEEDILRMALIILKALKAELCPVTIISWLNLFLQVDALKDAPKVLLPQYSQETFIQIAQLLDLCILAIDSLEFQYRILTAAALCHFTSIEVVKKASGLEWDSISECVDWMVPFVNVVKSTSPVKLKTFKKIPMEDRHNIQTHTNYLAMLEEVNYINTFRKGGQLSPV
R5F: 0.686
E10L: 5.37
F8Q: 0.374
S12K: 6.28
S13A: 6.3
E10G: 5.76
E10Y: 4.63
V3D: -0.246
A9D: 6.82
K4D: 0.455
F8C: 0.57
D11G: 6.5
F8T: 0.486
D11W: 5.43
F8G: 0.699
F8M: 0.799
K4W: 0.565
L7A: -0.237
V3R: 0.432
G2H: 6.51
S12A: 6.92
R5C: 1.09
E10N: 6.26
G2D: 6.04
V3H: 3.94

Set 3 — target: UBE2D2 UBC core domain (UniProt P62837); technique: yeast two-hybrid; medium: yeast; setting: mostly zero background; reference: not given; reading: higher = stronger interaction; measurement: lacZ reporter activity
Chain of UniProt P62837 (whole entry, looked up): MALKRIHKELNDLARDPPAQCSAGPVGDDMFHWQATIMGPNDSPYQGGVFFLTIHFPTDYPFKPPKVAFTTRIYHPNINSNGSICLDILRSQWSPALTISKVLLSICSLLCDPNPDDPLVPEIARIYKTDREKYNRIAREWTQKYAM
B1: SH3RF1 RING domain (UniProt Q7Z6J0); chain DESALLDLLECPVCLERLDASAKVLPCQHTFCKRCLLGIVGSRNELRCPECRTLVGSGVEEL
B2: RFWD3 RING domain (UniProt Q6PCD5); chain ASMDEEEGDTCTICLEQWTNAGDHRLSALRCGHLFGYRCISTWLKGQVRKCPQCNKKARHSDIVV
B3: RNF121 RING domain (UniProt Q9H920); chain MPTKHLSDSVCAVCGQQIFVDVSEEGIIENTYRLSCNHVFHEFCIRGWCIVGKKQTCPYCKEKVDLKRMFS
B4: SYTL4 RING domain (UniProt Q96C24); chain RGSQHYSDRTCARCQESLGRLSPKTNTCRGCNHLVCRDCRIQESNGTWRCKVCAKEIELKKAT
B5: ZMIZ2 RING domain (UniProt Q8NF64); chain GTIPGTPGPNGEDGVEQTAIKVSLKCPITFRRIQLPARGHDCRHIQCFDLESYLQLNCERGTWRCPVCNKTALLEGLEVDQYMLGILIYIQNSDYEEITIDPTCSWK
B6: RNF19A RING domain (UniProt Q9NV58); chain ISKQIGDFIECPLCLLRHSKDRFPDIMTCHHRSCVDCLRQYLRIEISESRVNISCPECTERFNPHDIR
B7: UBOX5 RING domain (UniProt O94941); chain EQPGSILGPECASCKRVFSPYFKKEPVYQLPCGHLLCRPCLGEKQRSLPMTCTACQRPVASQDVLR
B8: DZIP3 RING domain (UniProt Q86Y13); chain PDEEEEEEEPCVICHENLSPENLSVLPCAHKFHAQCIRPWLMQQGTCPTCRLHVLLPEEFP
B9: MAP3K1 RING domain (UniProt Q13233); chain NSIKDEEEQMCPICLLGMLDEESLTVCEDGCRNKLHHHCMSIWAEECRRNREPLICPLCRSKWRSHDFYS
B10: RNF133 RING domain (UniProt Q8WVZ7); chain DEEINPNGDSCVICFERYKPNDIVRILTCKHFFHKNCIDPWILPHGTCPICKCDILKVLGIQ
GSDDEEIPFKCFICRQSFQNPVVTKCRHYFCESCALQHFRTTPRCYVCDQQTNGVFNPA (RNF113A RING domain (UniProt O15541)): 0
B1 (SH3RF1 RING domain): 0
GSRLQEINDVCAICYHEFTTSARITPCNHYFHALCLRKWLYIQDTCPMCHQKVYIEDDIK (RNF139 RING domain (UniProt Q8WU17)): 0
B2 (RFWD3 RING domain): 11300
FDGDVDPDLKCALCHKVLEDPLTTPCGHVFCAGCVLPWVVQEGSCPARCRGRLSAKELN (PDZRN3 RING domain (UniProt Q9UPQ7)): 0
B3 (RNF121 RING domain): 0
B4 (SYTL4 RING domain): 0
B5 (ZMIZ2 RING domain): 0
B6 (RNF19A RING domain): 0
AMYLQENGIDCPKCKFSYALARGGCMHFHCTQCRHQFCSGCYNAFYAKNKC (RNF31 RING domain (UniProt Q96EP0)): 0
B7 (UBOX5 RING domain): 0
B8 (DZIP3 RING domain): 0
KETIKKTTKPCPRCHVPVEKNGGCMHMKCPQPQCRLEWCWNCGCEWNRVCMG (PRKN RING domain (UniProt O60260)): 0
YQNEVDDDLVCHICLQPLLQPLDTPCGHTFCYKCLRNFLQEKDFCPLDRKRLHFKLCKK (LNX2 RING domain (UniProt Q8N448)): 0
B9 (MAP3K1 RING domain): 13700
B10 (RNF133 RING domain): 18000

Single results of other studies
CC(C)n1cnc(-c2ccc(F)cc2)c1-c1ncc(C(=O)Nc2ccc(N3CCN(C)CC3)cc2)[nH]1 — patients with adverse events (Phase 2a trial, item: influenza like illness; idiopathic pulmonary fibrosis patients; 60 mg once daily, grade 4 maximum intensity): 0%
KRT2 (Homo sapiens, UniProt P35908) — interaction screen (KRT77 (Homo sapiens, UniProt Q7Z794); cross-linking MS; hits only): cross-linked
